Published values from different studies.
Each numbered part is a random draw from the data of one study; scales do not carry over between parts. Changes are numbered by the printed parent chain.
Sequence of UniProt Q15819 (whole entry, looked up): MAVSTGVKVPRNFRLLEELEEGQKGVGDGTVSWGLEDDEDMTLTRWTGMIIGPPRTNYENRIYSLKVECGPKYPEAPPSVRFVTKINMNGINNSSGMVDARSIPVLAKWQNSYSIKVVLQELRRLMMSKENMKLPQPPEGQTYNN
Sequence of UniProt P61088 (whole entry, looked up): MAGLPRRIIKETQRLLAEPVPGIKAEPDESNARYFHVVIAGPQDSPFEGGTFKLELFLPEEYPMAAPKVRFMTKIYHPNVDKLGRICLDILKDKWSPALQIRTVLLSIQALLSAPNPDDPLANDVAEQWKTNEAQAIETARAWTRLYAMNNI
Sequence of UniProt P51965 (whole entry, looked up): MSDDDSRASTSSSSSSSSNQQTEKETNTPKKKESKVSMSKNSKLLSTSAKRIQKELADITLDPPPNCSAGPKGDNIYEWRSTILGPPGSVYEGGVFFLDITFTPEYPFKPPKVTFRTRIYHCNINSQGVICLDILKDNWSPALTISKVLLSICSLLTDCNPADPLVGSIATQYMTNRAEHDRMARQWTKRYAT
Sequence of UniProt P60604 (whole entry, looked up): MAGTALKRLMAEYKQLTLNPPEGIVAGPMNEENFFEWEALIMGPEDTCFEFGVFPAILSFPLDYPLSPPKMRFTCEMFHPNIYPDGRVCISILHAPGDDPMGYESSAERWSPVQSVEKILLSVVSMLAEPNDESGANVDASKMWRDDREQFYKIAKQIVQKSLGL
Sequence of UniProt Q96LR5 (whole entry, looked up): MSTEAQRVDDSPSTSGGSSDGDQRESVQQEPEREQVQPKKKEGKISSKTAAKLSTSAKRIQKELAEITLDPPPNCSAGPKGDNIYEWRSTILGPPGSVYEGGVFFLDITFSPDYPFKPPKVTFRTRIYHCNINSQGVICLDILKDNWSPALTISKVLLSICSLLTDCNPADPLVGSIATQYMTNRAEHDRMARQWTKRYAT
Sequence of UniProt Q13404 (whole entry, looked up): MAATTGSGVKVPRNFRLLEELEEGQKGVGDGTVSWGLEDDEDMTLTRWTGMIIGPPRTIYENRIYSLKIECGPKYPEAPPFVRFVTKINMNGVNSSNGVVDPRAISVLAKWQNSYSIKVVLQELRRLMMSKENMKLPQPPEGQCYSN

Block 1
Target: PABPC1L2, full length, GST fusion (mouse, UniProt A0ABA7IW68)
Technique: RNAcompete
Form: RNA
Sample: in vitro
Concentration: 20 nM
Notes: 7-mer, probes averaged, single round
Reference: mean of 7-mers
Reading: higher = stronger binding
Construct (chain): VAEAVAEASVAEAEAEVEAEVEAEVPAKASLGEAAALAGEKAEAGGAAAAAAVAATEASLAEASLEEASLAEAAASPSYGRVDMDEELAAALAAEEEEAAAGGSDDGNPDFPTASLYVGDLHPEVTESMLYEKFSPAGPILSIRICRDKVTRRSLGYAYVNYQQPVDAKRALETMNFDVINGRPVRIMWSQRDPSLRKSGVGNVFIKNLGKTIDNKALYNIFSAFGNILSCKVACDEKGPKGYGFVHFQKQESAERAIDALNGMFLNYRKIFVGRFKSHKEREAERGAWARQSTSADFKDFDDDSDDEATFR
| Sequence | 7-mer Z-score |
| --- | --- |
| AGUUAGA | -0.0428 |
| UCUGCAA | -0.179 |
| AAACAAA | 5.43 |
| GGGGGGA | 0.321 |
| UCACCCC | -0.414 |
| GAUGUGU | -0.322 |
| UGAGAGU | -0.0264 |
| CCAAUUC | -0.336 |

Block 2
Substance: HSPA5 (Homo sapiens, UniProt P11021)
Technique: cross-linking MS
Sample: cell fractions
| partner | together with | cross-linked residues |
| --- | --- | --- |
| HYOU1 (Homo sapiens, UniProt Q9Y4L1) | DHSO | E329 to D752 |
| MRC1 (Homo sapiens, UniProt P22897) | DSSO | K326 to K1292 |
| UBE2J2 (Homo sapiens, UniProt Q8N2K1) | DSSO | K579 to S2 |
| HSP90B1 (Homo sapiens, UniProt P14625) | DHSO | D348 to E351 |
| CKAP4 (Homo sapiens, UniProt Q07065) | DSSO | K81 to K287 |
| PDIA6 (Homo sapiens, UniProt Q15084) | DHSO | E546 to E247 |

Block 3
Molecule: B1 (VPS8 RING domain)
Technique: yeast two-hybrid
Sample: yeast
Notes: mostly zero background
Reference: not given
Reading: higher = stronger interaction
B1: VPS8 RING domain (UniProt Q8N3P4); chain TRGLNPKQDYCSICLQQYKRRQEMADEIIVFSCGHLYHSFCLQNKECTVEFEGQTRWTCYKCSSSNKVGKLSE
| target | lacZ reporter activity |
| --- | --- |
| UBE2E2 UBC core domain (UniProt Q96LR5) | 0 |
| UBE2N UBC core domain (UniProt P61088) | 0 |
| UBE2E1 UBC core domain (UniProt P51965) | 0 |
| UBE2V2 UBC core domain (UniProt Q15819) | 0 |
| UBE2V1 UBC core domain (UniProt Q13404) | 0 |
| UBE2G2 UBC core domain (UniProt P60604) | 0 |

Further values, each from its own experiment
Starting sequence: viral docking peptide; YKVKRRLVFGADD; partner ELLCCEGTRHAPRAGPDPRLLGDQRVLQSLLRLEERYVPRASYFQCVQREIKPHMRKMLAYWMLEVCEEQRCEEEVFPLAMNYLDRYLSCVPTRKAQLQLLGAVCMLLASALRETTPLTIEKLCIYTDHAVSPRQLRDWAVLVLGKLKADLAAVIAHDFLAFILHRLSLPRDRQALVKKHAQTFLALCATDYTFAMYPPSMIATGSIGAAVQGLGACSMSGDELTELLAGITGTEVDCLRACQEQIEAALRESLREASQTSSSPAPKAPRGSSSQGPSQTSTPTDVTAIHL
| Substitution | target | assay | system | conditions | how to read | quantity | value |
| --- | --- | --- | --- | --- | --- | --- | --- |
| YKVKRRLVFGAYD [D12Y] | CCND3, cyclin fold, Cln2 fusion (human) | yeast growth competition, sequencing | yeast | weak parent motif | reference: not given, higher = stronger binding | normalised enrichment score | 0.303 |

Excerpt of the above (block 1):
| Sequence | 7-mer Z-score |
| --- | --- |
| AAACAAA | 5.43 |
| GGGGGGA | 0.321 |
